# Published values gathered from unrelated publications.
# A part holds a random share of what one study measured.

# Series 1
# Target: Interferon regulatory factor 7, full length, phosphomimetic (IRF7, Homo sapiens, UniProt Q92985, residues 1-503, S101K/S471D/S472D/S475D/S476D/S477D/S483D/S484D/S487D)
# Sequence of UniProt Q92985 (whole entry, unmodified, looked up): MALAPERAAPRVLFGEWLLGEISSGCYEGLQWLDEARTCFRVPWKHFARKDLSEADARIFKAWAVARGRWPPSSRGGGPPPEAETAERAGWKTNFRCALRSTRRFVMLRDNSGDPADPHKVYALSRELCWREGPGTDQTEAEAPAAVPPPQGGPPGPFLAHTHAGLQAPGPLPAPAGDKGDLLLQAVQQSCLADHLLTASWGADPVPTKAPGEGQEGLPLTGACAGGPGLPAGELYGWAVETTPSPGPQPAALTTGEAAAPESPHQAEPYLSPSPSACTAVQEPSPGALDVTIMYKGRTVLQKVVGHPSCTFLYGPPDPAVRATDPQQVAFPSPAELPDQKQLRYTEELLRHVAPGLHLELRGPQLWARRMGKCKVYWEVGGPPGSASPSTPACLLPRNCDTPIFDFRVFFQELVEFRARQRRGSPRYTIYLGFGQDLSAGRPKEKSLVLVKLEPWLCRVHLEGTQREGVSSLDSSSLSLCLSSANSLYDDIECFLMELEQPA
# Technique: protein-binding microarray
# Form: double-stranded DNA, one strand shown
# Matrix: in vitro
# Concentration: 250 nM
# Notes: 60-bp whole probe
# With: salmon DNA 0.4 mg/ml
# Relative to: random background probes
# Direction: higher = stronger binding
# Shared flanks, not repeated: GCCTAGCAC … GTCTTGATTCGCTTGACGCTGCTG
Sequence,log fluorescence [z-score]
AGAATGATCTTCCTTCATGGCGTGCTA,-0.117
TTTGATTTCAGACTGGATTAGTGCTAG,0.139
TTATGTCTCCTTTTCCTTTAGTGCTAG,1.58
GACGAACTGGGGACCGGAGACGTGCTA,-0.591
GTCGGACTGGACTATCGGGACGTGCTA,-0.574
GACGGTATCGACATTGGGGACGTGCTA,-0.254
TCAGTTTTCCTTATTGCACTGTGCTAG,2.13
GTTGCTCTCTCACCACCTTCGTGCTAG,0.119
GTAGGTATCGACTATCGGTTAGTGCTA,-0.144
GACGATTTCGGGACTGGAGCCGTGCTA,0.0142
GTAGGTTTCCTACTGCTTTAGTGCTAG,0.44
GACGGACTGGGTCCCGGGACGTGCTAG,-0.243
ACCACTCTTCCTTTACTTTCGTGCTAG,0.71
GACGGATTCGGACTGGGGACGTGCTAG,0.183
CATACAATTTCAGATTCCAGTGTGCTA,0.622
GTCGGTCTCGGACTGGGGACGTGCTAG,0.542
TCACATTTTCGTTTTGTACTGTGCTAG,10.5
TTAGATTTCAGTTGCGATTAGTGCTAG,1.71
GACGGCTTCGACACTGGGGACGTGCTA,-0.515
GACGATATCGGTCTCGGGACGTGCTAG,0.274

# Series 2
# Target: Histone acetyltransferase KAT6A, winged helix 1, GST fusion (KAT6A, Homo sapiens, UniProt Q92794, residues 1-85)
# Technique: protein binding microarray
# Form: double-stranded DNA, one strand shown
# Matrix: in vitro
# Concentration: not given
# Notes: 8-mer, flanks averaged, mean of 2 arrays, mostly near background
# Relative to: not given
# Direction: higher = stronger binding
# Construct (chain): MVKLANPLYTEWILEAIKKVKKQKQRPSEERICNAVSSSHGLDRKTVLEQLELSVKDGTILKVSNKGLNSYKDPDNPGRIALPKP
Sequence,E-score
ATCTTACG,0.193
CCGCCTAC,0.127
AAGCTTCC,-0.126
GGAGTGGA,-0.0941
GAAGTTGC,-0.176
GTGCGGGA,0.373
GGGTCCGA,0.145
AACAACAT,-0.133
AAGACAAT,-0.0995
CAGATAAA,-0.105
ATTAGGTA,-0.158
AGTCCAAC,-0.218
TCCCGGAA,0.138
ATTTGCTC,-0.0659
TCATCTCA,-0.22
CTTATAGC,0.0824
ATTATGGC,0.00713
CTAGGTGA,-0.221
CTCGCCAA,-0.0426
GACATTGC,0.0622
AACAGGGT,-0.321
CTCGCCCC,0.0366
TACGAGCA,-0.13

# Series 3
# Target: RNA binding protein fox-1 homolog 2, RRM domain, GST-SBP tag (RBFOX2, Homo sapiens, UniProt O43251-10, residues 100-194)
# Technique: RNA Bind-n-Seq
# Form: RNA
# Matrix: in vitro
# Concentration: 365 nM
# Notes: natural RNA segment, single round, ends assumed
# Relative to: no-protein control
# Direction: higher = stronger binding
# Shared flanks, not repeated: GGGAGUUCUACAGUCCGACGAUC … UGGAAUUCUCGGGUGCCAA
# Target sequence (chain): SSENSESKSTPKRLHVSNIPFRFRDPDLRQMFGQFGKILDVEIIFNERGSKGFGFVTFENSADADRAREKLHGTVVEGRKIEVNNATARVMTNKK
Sequence,RBNS enrichment (R)
AGACUCGUGUUCUGAAGGAUACUCUCCUCCAUCACCCCUGCACCUUCCUCCGACCUGUGUAGGGUGUGGACCCAGUAAGGGCUGGGAAUUUCUUACUUUCCCACCCGCUU,0.305
CCUCCAAGCCGUUGCAGACAAAGUGAAAGAGGACUCCCAGGUGCCUGCAACCCAGACUCUGCAGAGAGCAGGGCCGAAAGCACUGGAGAAGGUGGAGGAGGUAGAGGAGG,0.548
GCUCCUGGGUGGCUUUGUGUGAGGGGACUGAACGCAGACAAACCACAGCCUGCUUCUAAUACCUUCUUUCCCUACCACCUAGUUCCAAAUGGAACCAACAAGUUGAGUGC,0.279
GGGGACAUGGAGCUUAAUCAUUGGUCAGGUUUGAAGUCUUUUGAAGCUAAGUAAUUUUAUUUAAUAUGAUUACAUGUCGUCAGUCAUGAGUGAGGUGUAGGGAGUCUCCC,0.666
GUCUUCACUGUGACCAAUCGGAGUCCCUGCUUGCUUGUGAAGAAGGGGCUUUUGUACCUUGUUGGAGAUGCCACCUCAGAAGUUCACACUGUGCAGGAAAAAGGUUUUAU,1.42
CUUCAUGGAGGGUGGUAACAGCACCUCAGUCCAGCCAAAAUGUUUAGAAACACUCAGUCUCUGGUCCCAGAGGAUGGCUUCUCAGGGCAUGCCACAAGUUAAAGGUCACC,0.612
UUAAAUAAAUGAAUGUCUAUACUUUUUAAGGAAAAGAGAAAAUACCAUGUCACAGAAAAGGUGAAACUAUUAGAUGCUGUUUAGAAAGCAUUUAUCUUGCAUUUCUUUAU,1.5
GAGCCACCUUCCCAUCCCAGCACCAGAGACUGCAGUUUCCCUCAGUCCUCCACCCUCCCACUGCCGCCACCCCUACUGCUGCAGGCUCACAGACCUCAGUCAUGUGAUAA,0.767
ACUCUAGGAUGAAGGCCUUGAAUAUCGAUCGCUGCCAGUCCCUAAUAAGACUUUCCCUGCCAACCAGGACAGCCUGGACCAUGCCUGCCUGUUCACUGUUUCAGGCUGCU,0.512
CCGCGUGCUGUGUCACUGCUUUGUUCCAGACACAAACCAGCACGUCUAGGGCCCAGCCCCUCCCCCACCCCGGCAUUUCAGCGUCAAGUGCACUUAGCGGGGUACCCGGC,0.474
UUCUGGAAUUGGGGGACCCCCGCCAAAGACUGAGCCCCCUGUCUCCUCCAUCAUUUGGUUUCCUCUUGGCUUUGGGGAUACUUCUAAAUUUUGGGAGCUCCUCCAUCUCC,0.355
AAAACGUUUCCCCAGGCCCUGCUGUCUGCCAGGAGUGCCAAGUGUCAACUGUUUACACACAAACUGCCAUGUCCCACGCCCCUUCCCUCUCCUUGUUUGCUAUGGGGGAG,1.24

# Series 4
# Target: RING finger protein unkempt homolog, zinc fingers 1-6, GST-SBP tag (UNK, Homo sapiens, UniProt Q9C0B0, residues 30-357)
# Sequence of UniProt Q9C0B0 (30-357, looked up): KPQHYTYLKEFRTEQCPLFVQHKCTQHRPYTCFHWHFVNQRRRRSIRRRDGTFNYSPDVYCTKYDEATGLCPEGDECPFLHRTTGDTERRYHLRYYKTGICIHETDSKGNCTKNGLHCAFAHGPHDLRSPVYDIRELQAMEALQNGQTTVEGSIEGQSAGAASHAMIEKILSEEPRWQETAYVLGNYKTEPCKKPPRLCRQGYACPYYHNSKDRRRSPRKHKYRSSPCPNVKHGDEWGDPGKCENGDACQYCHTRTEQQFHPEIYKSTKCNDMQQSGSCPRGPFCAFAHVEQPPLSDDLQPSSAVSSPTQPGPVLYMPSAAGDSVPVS
# Technique: RNA Bind-n-Seq
# Form: RNA
# Matrix: in vitro
# Concentration: not given
# Notes: RNA with constant flanks, human-mouse chimeric sites, ends assumed
# Relative to: input RNA pool
# Direction: higher = stronger binding
# Shared flanks, not repeated: GGGAGUUCUACAGUCCGACGAUC … CAACAGAGGAUUGAGCAUCA
Sequence,bound/input enrichment [ratio]
GUGUCCUUUCAACUUAAUAAAUCACUGAGGCAUCUCUACUAUUCUGUGAGCAUCAGGACUGUAGCGCUGUGUCACCACAUGAGAGUUCAGAAGCAGCCUUUCUGUGGAGGGUGGGAAUGA,0.31
AGAUUCCCCCUCCUGAGGCCUUCUCCAAAGUUGGAGUCUCUUACAGAUGCCUCAUCCCCUGUUAGCGUUUUGGUCUGGACCACCCAGCCUUGGACAAUUCCCGCCAACCAGGCAAUUUGC,0.566
GAUCCACAGUGGUCUGAGGAGCAACUCAUUGCUGCAAAAUUCUGUUUUGCUGGCCUUCUUAUAGGCCAGACUGAAGUGGACAUCAUGAGUCAUGCCACACAAGCUAUUUUUGAAAUUCUG,0.172
UCAGGAACCCAGACAAAUAUGAAUGUAAAUGAAGUCAUUAGCAACAGAGCAAUUGAAAUGUUAGGAGGUGAACUUGGCAGCAAGAAGCCUGUGCACCCCAACGAUCAUGUUAACAAAAGC,0.512
CAGCCUCAGAGCCCAGACUUCCUGGAUAUUACCAACCCUAAAGCGGUAUUAGAAAAUGCAUUGAGAAACUUUGCCUGUCUGACGACUGGAGAUGUGAUUGCCAUCAACUACAAUGAGAAG,0.464
AUCCAGUACUCGAAUCACAAAGAACUAAAGACAGAUAAUACAUUAAACCAACGUGCUCAGGCAGUUCUUCAAGCUGUGACAGCGGUCCAGACAGCAAAUACACCUCUUAGUGGCACCACA,0.312
UAAAUUAGGGCUGCCGUCCGUUCUCACUCCCUGGGCUGCGGAAAGCCAGAAGAUUUUAUCUAGCUUAUACAAGGCUGCUGGUGUUCCCUCUUUUUUUCCACGAGGGUGUUUUUGGCUGCA,0.558
GAAUCCUCCCGUGCAAAAUUUUGCAACACCAAGCUCACAGCAGCAGCUCCAUAGUCACAGUAGGGUAGUUUUGGGGCUCUGUGGCCAGGGUUUUAUUCACAUGCAGGUUUGGAAAAUGUA,0.77
AGCACAACCCCAGCAAAGCUCAGGAACCCUUGUACAAGUGAACAAAACUGCACCAGCCCAUUUAGCUACAAAAAUGUGCUUAGUCUUACUGACAGAGGAGAAGUAUUCAAUGAACUUGUU,0.694
AUCAAAUACUUUGGGGACAUCAUUAGUGUGGGACAGAGACUGUUGCAAGGGGCCCGGAUCUUAGGGAUUCCAGUUAUUGUAACAGAACAAUACCCCAAAGGACUUGGCAGCACCGUUCAA,0.191
GGCUGCUACUAUUCUCCCUGGAGUGGCUGGAGUUCCCGCCGGAGCGCGGCCAGACUAAUUUUAGAAAAUGCCAAGUAGGAAGUUUGUCGAUGGUGAAGUGGUCAGAGGCCGAUGGCCUGG,2.42

# A few entries again (series 1):
Sequence,log fluorescence [z-score]
TTTGATTTCAGACTGGATTAGTGCTAG,0.139
TTATGTCTCCTTTTCCTTTAGTGCTAG,1.58
GACGAACTGGGGACCGGAGACGTGCTA,-0.591
GTCGGACTGGACTATCGGGACGTGCTA,-0.574
GACGGTATCGACATTGGGGACGTGCTA,-0.254
TCAGTTTTCCTTATTGCACTGTGCTAG,2.13
GTTGCTCTCTCACCACCTTCGTGCTAG,0.119
GTAGGTATCGACTATCGGTTAGTGCTA,-0.144
